Measurements from different studies.
Compare with care: the assays were run in different laboratories. ± marks the error that the study gave.
Napepld: N-acyl-phosphatidylethanolamine-hydrolyzing phospholipase D (Napepld, Mus musculus, UniProt Q8BH82)
GLP1R: Glucagon-like peptide 1 receptor (GLP1R, Homo sapiens, UniProt P43220)
AGTR1: Type-1 angiotensin II receptor (AGTR1, Homo sapiens, UniProt P30556)
NMUR1: Neuromedin-U receptor 1 (NMUR1, Homo sapiens, UniProt Q9HB89)
GIPR: Gastric inhibitory polypeptide receptor (GIPR, Homo sapiens, UniProt P48546)
NMUR2: Neuromedin-U receptor 2 (NMUR2, Homo sapiens, UniProt Q9GZQ4)

| Compound | target | assay | system | conditions | how to read | Emax |
| --- | --- | --- | --- | --- | --- | --- |
| Cc1ccc(C)c2sc(NC(=O)C3CCN(S(=O)(=O)c4ccc(F)cc4)CC3)nc12 | Napepld | enzyme activity, activator, fluorescence, PED-A1 substrate |  |  | relative to: vehicle | > 2 fold |
| COc1ccccc1-c1cc(C(F)(F)F)nc(S(=O)(=O)CCCC(=O)Nc2ccn(Cc3ccc(C)cc3)n2)n1 | GLP1R | cAMP, agonist |  |  |  | 32% |
| O=C(Nc1nc2ccccc2s1)C1CCN(S(=O)(=O)c2ccc(F)c(Cl)c2)CC1 | Napepld | enzyme activity, activator, fluorescence, PED-A1 substrate |  |  | relative to: vehicle | < 1.2 fold |
| CSCC[C@H](NC(=O)[C@H](Cc1ccc(O)cc1)NC(=O)[C@@H](NC(=O)[C@H](CCCNC(=N)N)NC(=O)[C@@H](N)CC(=O)O)C(C)C)C(=O)N[C@@H](Cc1c[nH]cn1)C(=O)N1CCC[C@H]1C(=O)N[C@@H](CC(C)C)C(=O)O | AGTR1 | β-arrestin recruitment, agonist | CHO |  |  | 73% |
| Cc1cc(C)c2sc(NC(=O)C3CCN(S(=O)(=O)c4ccc(F)cc4)CC3)nc2c1 | Napepld | enzyme activity, activator, fluorescence, PED-A1 substrate |  |  | relative to: vehicle | > 2 fold |
| COc1ccc(-c2cc(C(F)(F)F)nc(S(=O)(=O)CCCC(=O)Nc3ccc(F)c(Cl)c3)n2)cc1OC | GLP1R | cAMP accumulation, positive allosteric modulator | HEK-293T overexpressing GLP1R | together with: EC20 GLP-1 |  | 58 ± 34% |
| CCCCCCCCCCCCCCCCN(CCCCCCCCCCCCCCCC)CCCCCC(=O)NC(C)(C)C(=O)N[C@@H](Cc1ccccc1)C(=O)N[C@@H](CC(C)C)C(=O)N[C@@H](Cc1ccccc1)C(=O)N[C@@H](CCCNC(=N)N)C(=O)N1CCC[C@H]1C(=O)N[C@@H](CCCNC(=N)N)C(=O)N[C@@H](CC(N)=O)C(N)=O | NMUR1 | calcium signaling, agonist | HEK293 expressing NMUR1 | 30 µM | relative to: human neuromedin U max | 81 ± 3.6% |
| CCCSC[C@H](NC(=O)[C@H](Cc1ccc(O)cc1)NC(=O)[C@@H](NC(=O)[C@H](CCCNC(=N)N)NC(=O)CNC)C(C)C)C(=O)N[C@@H](Cc1c[nH]cn1)C(=O)N1CCC[C@H]1C(=O)N[C@@H](CC(C)C)C(=O)O | AGTR1 | β-arrestin recruitment, agonist | CHO |  |  | 83% |
| CC[C@H](C)[C@H](NC(=O)[C@H](CO)NC(=O)[C@H](Cc1ccc(O)cc1)NC(=O)[C@H](CC(=O)O)NC(=O)[C@H](CO)NC(=O)[C@@H](NC(=O)[C@H](Cc1ccccc1)NC(=O)[C@@H](NC(=O)CNC(=O)[C@H](CCC(=O)O)NC(=O)[C@H](C)NC(=O)[C@@H](N)Cc1ccc(O)cc1)[C@@H](C)O)[C@@H](C)CC)C(=O)N[C@@H](C)C(=O)N[C@@H](CCSC)C(=O)N[C@@H](CC(=O)O)C(=O)N[C@@H](CCCCN)C(=O)N[C@H](C(=O)N[C@@H](CCCNC(=N)N)C(=O)N[C@@H](CCC(N)=O)C(=O)N[C@@H](CCC(N)=O)C(=O)N[C@@H](CC(=O)O)C(=O)N[C@@H](Cc1ccccc1)C(=O)N[C@H](C(=O)N[C@@H](CC(N)=O)C(=O)N[C@@H](Cc1c[nH]c2ccccc12)C(=O)N[C@@H](CC(C)C)C(=O)N[C@@H](CC(C)C)C(=O)N[C@@H](C)C(=O)N[C@@H](CCC(N)=O)C(=O)N[C@@H](CCCCN)C(=O)NCC(=O)N[C@@H](CCCCN)C(=O)N[C@@H](CCCCN)C(=O)N[C@@H](CC(N)=O)C(=O)N[C@@H](CC(=O)O)C(=O)N[C@@H](Cc1c[nH]c2ccccc12)C(=O)N[C@@H](CCCCN)C(=O)N[C@@H](Cc1c[nH]cn1)C(=O)N[C@@H](CC(N)=O)C(=O)N[C@@H](CC(C)C)C(=O)N[C@H](C(=O)N[C@@H](CCC(N)=O)C(=O)O)[C@@H](C)O)C(C)C)[C@@H](C)CC | GIPR | cAMP, agonist | COS-7 |  |  | 113% |
| CCCCCCCCCCCCCCCC(=O)NCCOCCOCCOCCOCCOCCOCCOCCOCCOCCOCCOCCOCCC(=O)NC(C)(C)C(=O)N[C@@H](Cc1ccccc1)C(=O)N[C@@H](CC(C)C)C(=O)N[C@@H](Cc1ccccc1)C(=O)N[C@@H](CCCNC(=N)N)C(=O)N1CCC[C@H]1C(=O)N[C@@H](CCCNC(=N)N)C(=O)N[C@@H](CC(N)=O)C(=O)NC(C)(C)C(N)=O | NMUR2 | calcium signalling | HEK293 |  | relative to: human neuromedin U | 66.5 ± 0.1% |
| CCSC[C@H](NC(=O)[C@H](Cc1ccc(O)cc1)NC(=O)[C@@H](NC(=O)[C@H](CCCNC(=N)N)NC(=O)CNC)C(C)C)C(=O)N[C@@H](Cc1c[nH]cn1)C(=O)N1CCC[C@H]1C(=O)N[C@@H](CC(C)C)C(=O)O | AGTR1 | β-arrestin recruitment, agonist | CHO |  |  | 82% |
| CCCCCCCCCCCCCCCC(=O)NCCOCCOCCOCCOCCOCCOCCOCCOCCOCCOCCOCCOCCC(=O)NC(C)(C)C(=O)N[C@@H](Cc1ccccc1)C(=O)N[C@@H](CC(C)C)C(=O)N[C@@H](Cc1ccccc1)C(=O)N[C@@H](CCCNC(=N)N)C(=O)N1CCC[C@H]1C(=O)N[C@@H](CCCNC(=N)N)C(=O)N[C@@H](CC(N)=O)C(N)=O | NMUR2 | calcium signalling | HEK293 |  | relative to: human neuromedin U | 92.8 ± 2.2% |
| Cc1cc(Br)cnc1OCCCNc1n[s+]([O-])nc1NCc1ccc[n+]([O-])c1 (stereo not shown) | Probable G-protein coupled receptor 132 (GPR132, Homo sapiens, UniProt Q9UNW8) | agonist |  |  |  | 99 ± 3% |
| COc1ccc(-c2cc(C(F)(F)F)nc(NCc3cccnc3)n2)cc1OC | GLP1R | cAMP accumulation, positive allosteric modulator | HEK-293T overexpressing GLP1R | together with: EC20 GLP-1 |  | 35 ± 0.8% |
| Cn1ccc2c(N3CCN(CCCCOc4ccc5c(c4)NC(=O)CC5)CC3)cccc21 | D(2) dopamine receptor (DRD2, Homo sapiens, UniProt P14416) | β-arrestin recruitment, agonist |  |  |  | 36% |
| COc1ccc(-c2cc(C(F)(F)F)nc(S(=O)(=O)CCCC(=O)Nc3ccccc3F)n2)cc1OC | GLP1R | cAMP accumulation, positive allosteric modulator | HEK-293T overexpressing GLP1R | together with: EC20 GLP-1 |  | 61 ± 27% |
| CCCCCCCCCCCCCCCCSCc1cc2cc(c1)CSC[C@H](N)C(=O)NCCCCCC(=O)N[C@@H](Cc1ccccc1)C(=O)N[C@@H](CC(C)C)C(=O)N[C@@H](Cc1ccccc1)C(=O)N[C@@H](CCCNC(=N)N)C(=O)N1Cc3ccccc3C[C@H]1C(=O)N[C@@H](CCCNC(=N)N)C(=O)N[C@@H](CC(N)=O)C(=O)NCCCCCC(=O)N[C@H](C(N)=O)CSC2 | NMUR2 | calcium signalling, agonist | HEK293 expressing receptor | 10 µM | relative to: human NmU | 127 ± 10.8% |
| COc1ccc(-c2cc(C(F)(F)F)nc(S(=O)(=O)CCCC(=O)Nc3ccc(F)cc3F)n2)cc1OC | GLP1R | cAMP accumulation, positive allosteric modulator | HEK-293T overexpressing GLP1R | together with: EC20 GLP-1 |  | 49 ± 21% |
| CC(C)C[C@H](NC(=O)[C@H](Cc1ccccc1)NC(=O)CCCCCNC(=O)[C@@H](N)CS)C(=O)N[C@@H](Cc1ccccc1)C(=O)N[C@@H](CCCNC(=N)N)C(=O)N1Cc2ccccc2C[C@H]1C(=O)N[C@@H](CCCNC(=N)N)C(=O)N[C@@H](CC(N)=O)C(=O)NCCCCCC(=O)N[C@@H](CS)C(N)=O | NMUR1 | calcium signalling, agonist | HEK293 expressing receptor | 10 µM | relative to: human NmU | 61 ± 12.7% |
| COc1ccccc1-c1cc(C(F)(F)F)nc(S(=O)(=O)CCCC(=O)Nc2ccc(F)cc2F)n1 | GLP1R | cAMP, agonist |  |  |  | 48% |
| C[C@@H]1CN(c2ccnc(C(=O)N[C@H]3C[C@@H]3c3ccccc3)c2)CC[C@@H]1O | Sodium- and chloride-dependent creatine transporter 1 (SLC6A8, Homo sapiens, UniProt P48029, P544L) | creatine transport | U-2 OS P544L knock-in | pulse dosing |  | > 1.5 fold |
| CC[C@H](C)[C@H](NC(=O)[C@H](CO)NC(=O)[C@H](Cc1ccc(O)cc1)NC(=O)[C@H](CC(=O)O)NC(=O)[C@H](CO)NC(=O)[C@@H](NC(=O)[C@H](Cc1ccccc1)NC(=O)[C@@H](NC(=O)CNC(=O)[C@@H]1CCCN1C(=O)[C@H](C)NC(=O)[C@@H](N)Cc1ccc(O)cc1)[C@@H](C)O)[C@@H](C)CC)C(=O)N[C@@H](C)C(=O)N[C@@H](CCSC)C(=O)N[C@@H](CC(=O)O)C(=O)N[C@@H](CCCCN)C(=O)N[C@H](C(=O)N[C@@H](CCCNC(=N)N)C(=O)N[C@@H](CCC(N)=O)C(=O)N[C@@H](CCC(N)=O)C(=O)N[C@@H](CC(=O)O)C(=O)N[C@@H](Cc1ccccc1)C(=O)N[C@H](C(=O)N[C@@H](CC(N)=O)C(=O)N[C@@H](Cc1c[nH]c2ccccc12)C(=O)N[C@@H](CC(C)C)C(=O)N[C@@H](CC(C)C)C(=O)N[C@@H](C)C(=O)N[C@@H](CCC(N)=O)C(=O)N[C@@H](CCCNC(=N)N)C(=O)NCC(=O)N[C@@H](CCCCN)C(=O)N[C@@H](CCCCN)C(=O)N[C@@H](CO)C(=O)N[C@@H](CC(=O)O)C(=O)N[C@@H](Cc1c[nH]c2ccccc12)C(=O)N[C@@H](CCCCN)C(=O)N[C@@H](Cc1c[nH]cn1)C(=O)N[C@@H](CC(N)=O)C(=O)N[C@H](C(=O)N[C@H](C(=O)N[C@@H](CCC(N)=O)C(=O)O)[C@@H](C)O)[C@@H](C)CC)C(C)C)[C@@H](C)CC | GIPR | cAMP, agonist | COS-7 |  |  | 67% |
| COc1ccc(-c2cc(C(F)(F)F)nc(SCC(=O)N(C)c3ccccc3)n2)cc1OC | GLP1R | cAMP accumulation, positive allosteric modulator | HEK-293T overexpressing GLP1R | together with: EC20 GLP-1 |  | 32 ± 1.3% |
| CC[C@H](C)[C@H](NC(=O)[C@H](CO)NC(=O)[C@H](Cc1ccc(O)cc1)NC(=O)[C@H](CC(=O)O)NC(=O)[C@H](CO)NC(=O)[C@@H](NC(=O)[C@H](Cc1ccccc1)NC(=O)[C@@H](NC(=O)CNC(=O)[C@@H]1CCCN1C(=O)[C@H](C)NC(=O)[C@@H](N)Cc1ccc(O)cc1)[C@@H](C)O)[C@@H](C)CC)C(=O)N[C@@H](C)C(=O)N[C@@H](CCSC)C(=O)N[C@@H](CC(=O)O)C(=O)N[C@@H](CCCCN)C(=O)N[C@H](C(=O)N[C@@H](CCCNC(=N)N)C(=O)N[C@@H](CCC(N)=O)C(=O)N[C@@H](CCC(N)=O)C(=O)N[C@@H](CC(=O)O)C(=O)N[C@@H](Cc1ccccc1)C(=O)N[C@H](C(=O)N[C@@H](CC(N)=O)C(=O)N[C@@H](Cc1c[nH]c2ccccc12)C(=O)N[C@@H](CC(C)C)C(=O)N[C@@H](CC(C)C)C(=O)N[C@@H](C)C(=O)N[C@@H](CCC(N)=O)C(=O)N[C@@H](CCCCN)C(=O)NCC(=O)N[C@@H](CCCCN)C(=O)N[C@@H](CCCCN)C(=O)N[C@@H](CC(N)=O)C(=O)N[C@@H](CC(=O)O)C(=O)N[C@@H](Cc1c[nH]c2ccccc12)C(=O)N[C@@H](CCCCN)C(=O)N[C@@H](Cc1c[nH]cn1)C(=O)N[C@@H](CC(N)=O)C(=O)N[C@@H](CC(C)C)C(=O)N[C@H](C(=O)N[C@@H](CCC(N)=O)C(=O)O)[C@@H](C)O)C(C)C)[C@@H](C)CC | GIPR | cAMP, agonist | COS-7 |  |  | 73% |
| COc1cc(Cl)ccc1NC(=O)CCCS(=O)(=O)c1nc(-c2ccc(OC)c(OC)c2)cc(C(F)(F)F)n1 | GLP1R | cAMP, agonist |  |  |  | 36% |

Some of these lines once more:
| Compound | target | assay | system | conditions | how to read | Emax |
| --- | --- | --- | --- | --- | --- | --- |
| CCCCCCCCCCCCCCCCSCc1cc2cc(c1)CSC[C@H](N)C(=O)NCCCCCC(=O)N[C@@H](Cc1ccccc1)C(=O)N[C@@H](CC(C)C)C(=O)N[C@@H](Cc1ccccc1)C(=O)N[C@@H](CCCNC(=N)N)C(=O)N1Cc3ccccc3C[C@H]1C(=O)N[C@@H](CCCNC(=N)N)C(=O)N[C@@H](CC(N)=O)C(=O)NCCCCCC(=O)N[C@H](C(N)=O)CSC2 | NMUR2 | calcium signalling, agonist | HEK293 expressing receptor | 10 µM | relative to: human NmU | 127 ± 10.8% |
